Measured values gathered from unrelated publications.
Compare with care: the assays were run in different laboratories. Numbers after ± are the reported error.
Organism: Escherichia coli

Under “inhibition zone diameter”, `Clc1ccc(CSc2nnc(C34CC5CC(CC(C5)C3)C4)n2-c2ccccc2)cc1` is recorded as < 10 mm (IFO 3301; 200 µg/disc, 24 h, 37 °C).
`C[C@]1(COC(=O)Cc2ccc(O)c(O)c2)[C@H](C(=O)O)N2C(=O)/C(=C/c3ccccn3)[C@H]2S1(=O)=O`: “MIC of ceftazidime” ≤ 0.06 µg/mL (broth microdilution; TG1 expressing FOX-4; 16 µg/mL).
`c1ccc(CN2CCOCCOCCN(CCCCCCCCCCN3CCOCCOCCN(CCCCCCCCCCN4CCOCCOCCN(Cc5ccccc5)CCOCCOCC4)CCOCCOCC3)CCOCCOCC2)cc1` gave a potassium release of 4% (K+ selective electrode; tetracycline-resistant; 4 µM, 10 min; relative to: total).
Under “biofilm mass reduction”, `N=C(N)NCCC[C@@H]1NC(=O)[C@H](CCCNC(=N)N)NC(=O)[C@H](CCCNC(=N)N)NC(=O)[C@H](Cc2ccc3ccccc3c2)NC(=O)[C@H](Cc2c[nH]c3ccccc23)NC(=O)[C@H](Cc2ccc3ccccc3c2)NC(=O)[C@H](CCCNC(=N)N)NC1=O` is recorded as 40 to 45% (XTT; ATCC BAA-2452; MIC).
`CCCCCC1CC2CCCC3CC(C)N=C(N1)N32` (stereo not shown) gave an IC50 of 23.3 µM (bacterial growth; ATCC 35218).
`c1ccc(CN2CCOCCOCCN(CCCCCCCCN3CCOCCOCCN(CCCCCCCCN4CCOCCOCCN(Cc5ccccc5)CCOCCOCC4)CCOCCOCC3)CCOCCOCC2)cc1`: “MIC of tetracycline” 30 ± 8 µM (tetracycline-resistant; 125 µM).
`O=C(O)[C@@H]1Cc2c([nH]c3ccccc23)[C@@H](c2ccccc2Cl)N1` gave a growth inhibition of 0% (BL21(DE3); 250 µM, 18 h).
`CC(=NNC(=N)N)c1nnn(-c2ccc(C#CC3(O)CCCCC3)cc2)c1C` — result for “inhibition zone diameter”: 30.7 ± 0.47 mm (ATCC 25922; concentration not given).
With `Cc1ccc(N(CCc2nnc(S)o2)S(=O)(=O)c2ccc(C)cc2)cc1` the relative inhibition was 46.1% (cup plate method; 100 µg/mL; relative to: cotrimoxazole).
`CNC1=C([N+](=O)[O-])C2(C(=O)Nc3ccc([N+](=O)[O-])cc32)C2=C(CCCC2=O)O1` (stereo not shown) has an inhibition of 31.6% (microbial growth; ATCC25922; 250 µg/mL, 24 h).
`COc1ccc(/N=N/C(=S)N2CCOCC2)cc1` gave an IC50 of > 50 µM (microbial growth; ATCC 8739, ATCC8739; 24 h).
`CCOC(=O)C1=C(C)NC2=C(C(=O)CC(C)(C)C2)C1c1ccc(OCC(=O)NN=Cc2cc(Br)c(O)c(Br)c2)cc1OCC(=O)NN=Cc1cc(Br)c(O)c(Br)c1` (stereo not shown): “inhibition zone diameter” 6.6 ± 0.01 mm (ATCC 25922; concentration not given, 24 h, 37 °C).
`CC(C)=CCc1cc2c(cc1O)OC[C@H]1c3ccc(O)c(CC=C(C)C)c3O[C@@H]21`: antibacterial activity “inactive” (TISTR 780; concentration not given).

For quick reference, copied from above:
`CNC1=C([N+](=O)[O-])C2(C(=O)Nc3ccc([N+](=O)[O-])cc32)C2=C(CCCC2=O)O1` (stereo not shown) has an inhibition of 31.6% (microbial growth; ATCC25922; 250 µg/mL, 24 h).
